# Measured values from different studies.
# Each numbered part is a random draw from the data of one study; scales do not carry over between parts.

# Series 1
# Target: Histone acetyltransferase KAT6A, both winged helices, GST fusion (KAT6A, Homo sapiens, UniProt Q92794, residues 1-181)
# Method: protein binding microarray
# Molecule type: double-stranded DNA, one strand shown
# Medium: in vitro
# Tested at: not given
# Setting: 8-mer, flanks averaged, mean of 2 arrays, mostly near background
# Relative to: not given
# Reading: higher = stronger binding
# Construct (chain): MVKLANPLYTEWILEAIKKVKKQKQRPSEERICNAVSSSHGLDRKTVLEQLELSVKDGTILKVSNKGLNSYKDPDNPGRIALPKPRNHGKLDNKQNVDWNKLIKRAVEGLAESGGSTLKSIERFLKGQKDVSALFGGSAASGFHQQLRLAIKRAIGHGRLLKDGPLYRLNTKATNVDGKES
Strand,E-score
ACTGCCTC,-0.0824
GCACACGA,0.0934
TCTCCAAA,-0.185
ATCGGAAA,0.164
AAAATCTG,-0.104

# Series 2
# Target: Sal-like protein 4, full length isoform B (SALL4, Homo sapiens, UniProt Q9UJQ4-2, residues 1-616)
# Method: universal PBM
# Molecule type: double-stranded DNA, one strand shown
# Medium: in vitro
# Tested at: not given
# Setting: 8-mer, flanks averaged, mean of replicates
# Reading: higher = stronger binding
Strand,E-score
GAAGCAGA,-0.0302
TCGCGACA,-0.0491
GATAAAGA,0.187
GATAGAGA,0.00129
ACACCACC,-0.183

# Series 3
# Target: Phosphate system positive regulatory protein PHO4, full length, GST-tagged (PHO4, Saccharomyces cerevisiae, UniProt P07270, residues 1-312)
# Method: competition protein-binding microarray
# Molecule type: double-stranded DNA, one strand shown
# Medium: in vitro
# Tested at: 2 µM
# Setting: whole 60-bp probe, lowest competitor level
# Together with: Cbf1 competitor, 0.05 µM
# Reading: higher = stronger binding
# All sequences stand within: … GTCTTGATTCGCTTGACGCTGCTG
# Residues (chain): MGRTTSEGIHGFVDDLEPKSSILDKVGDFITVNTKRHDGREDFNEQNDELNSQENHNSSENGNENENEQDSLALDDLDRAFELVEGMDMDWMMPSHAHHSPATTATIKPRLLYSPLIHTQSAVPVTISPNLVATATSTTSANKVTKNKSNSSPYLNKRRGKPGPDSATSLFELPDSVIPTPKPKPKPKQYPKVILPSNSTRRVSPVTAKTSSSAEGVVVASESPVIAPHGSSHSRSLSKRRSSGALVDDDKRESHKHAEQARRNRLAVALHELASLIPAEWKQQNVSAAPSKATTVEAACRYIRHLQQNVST
Strand,fluorescence intensity [a.u.]
GAAAGAGTGGCTTATCATGTGTAATAGGCGAATAAG,6680
AAATTACTAAGTTGAAGGGTGGGTGACGCCGTATGA,4020
TGCGCAACAACTTGATCTGTGGGTGTATGTCTAGAA,4410
TGTAAATTTTTTTCAGCCACTTTATCGGCACTGGAA,2900
ATGCTATGCCTATTGTTTATTTGGATTTTCCCATAT,4230

# Further values, each from its own experiment
Substance,target,assay,test system,conditions,scale,endpoint,result
"PhoQ, residues 284 288 289 292 302 303 TNASYF","PhoP, residues 12 14 15 18 19 NQAHL (Escherichia coli, UniProt P23836)","Sort-seq, measured: YFP reporter",E. coli,"PhoQ-PhoP variant library, together with: 10 µM Mg2+","relative to: high Mg2+ state, higher = stronger signaling",fold induction,1.44

# A few entries again (series 3):
Strand,fluorescence intensity [a.u.]
GAAAGAGTGGCTTATCATGTGTAATAGGCGAATAAG,6680
AAATTACTAAGTTGAAGGGTGGGTGACGCCGTATGA,4020
